{"data": "Experimental data gathered from unrelated publications", "CTSL": "Procathepsin L (CTSL, Homo sapiens, UniProt P07711)", "note": "Each line is one published result; not all experiments were run side by side.", "UniProt P07711, sequence (whole entry, looked up)": "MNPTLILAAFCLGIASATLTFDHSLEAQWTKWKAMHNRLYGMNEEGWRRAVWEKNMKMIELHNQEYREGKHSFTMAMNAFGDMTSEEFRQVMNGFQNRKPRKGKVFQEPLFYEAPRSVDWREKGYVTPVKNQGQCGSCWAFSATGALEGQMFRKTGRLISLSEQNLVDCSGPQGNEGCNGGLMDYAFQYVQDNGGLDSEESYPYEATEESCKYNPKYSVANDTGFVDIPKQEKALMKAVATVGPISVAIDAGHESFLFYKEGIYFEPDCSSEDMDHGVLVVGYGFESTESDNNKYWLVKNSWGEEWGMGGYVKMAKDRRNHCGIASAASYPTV", "UniProt Q5S007, sequence (whole entry, looked up)": "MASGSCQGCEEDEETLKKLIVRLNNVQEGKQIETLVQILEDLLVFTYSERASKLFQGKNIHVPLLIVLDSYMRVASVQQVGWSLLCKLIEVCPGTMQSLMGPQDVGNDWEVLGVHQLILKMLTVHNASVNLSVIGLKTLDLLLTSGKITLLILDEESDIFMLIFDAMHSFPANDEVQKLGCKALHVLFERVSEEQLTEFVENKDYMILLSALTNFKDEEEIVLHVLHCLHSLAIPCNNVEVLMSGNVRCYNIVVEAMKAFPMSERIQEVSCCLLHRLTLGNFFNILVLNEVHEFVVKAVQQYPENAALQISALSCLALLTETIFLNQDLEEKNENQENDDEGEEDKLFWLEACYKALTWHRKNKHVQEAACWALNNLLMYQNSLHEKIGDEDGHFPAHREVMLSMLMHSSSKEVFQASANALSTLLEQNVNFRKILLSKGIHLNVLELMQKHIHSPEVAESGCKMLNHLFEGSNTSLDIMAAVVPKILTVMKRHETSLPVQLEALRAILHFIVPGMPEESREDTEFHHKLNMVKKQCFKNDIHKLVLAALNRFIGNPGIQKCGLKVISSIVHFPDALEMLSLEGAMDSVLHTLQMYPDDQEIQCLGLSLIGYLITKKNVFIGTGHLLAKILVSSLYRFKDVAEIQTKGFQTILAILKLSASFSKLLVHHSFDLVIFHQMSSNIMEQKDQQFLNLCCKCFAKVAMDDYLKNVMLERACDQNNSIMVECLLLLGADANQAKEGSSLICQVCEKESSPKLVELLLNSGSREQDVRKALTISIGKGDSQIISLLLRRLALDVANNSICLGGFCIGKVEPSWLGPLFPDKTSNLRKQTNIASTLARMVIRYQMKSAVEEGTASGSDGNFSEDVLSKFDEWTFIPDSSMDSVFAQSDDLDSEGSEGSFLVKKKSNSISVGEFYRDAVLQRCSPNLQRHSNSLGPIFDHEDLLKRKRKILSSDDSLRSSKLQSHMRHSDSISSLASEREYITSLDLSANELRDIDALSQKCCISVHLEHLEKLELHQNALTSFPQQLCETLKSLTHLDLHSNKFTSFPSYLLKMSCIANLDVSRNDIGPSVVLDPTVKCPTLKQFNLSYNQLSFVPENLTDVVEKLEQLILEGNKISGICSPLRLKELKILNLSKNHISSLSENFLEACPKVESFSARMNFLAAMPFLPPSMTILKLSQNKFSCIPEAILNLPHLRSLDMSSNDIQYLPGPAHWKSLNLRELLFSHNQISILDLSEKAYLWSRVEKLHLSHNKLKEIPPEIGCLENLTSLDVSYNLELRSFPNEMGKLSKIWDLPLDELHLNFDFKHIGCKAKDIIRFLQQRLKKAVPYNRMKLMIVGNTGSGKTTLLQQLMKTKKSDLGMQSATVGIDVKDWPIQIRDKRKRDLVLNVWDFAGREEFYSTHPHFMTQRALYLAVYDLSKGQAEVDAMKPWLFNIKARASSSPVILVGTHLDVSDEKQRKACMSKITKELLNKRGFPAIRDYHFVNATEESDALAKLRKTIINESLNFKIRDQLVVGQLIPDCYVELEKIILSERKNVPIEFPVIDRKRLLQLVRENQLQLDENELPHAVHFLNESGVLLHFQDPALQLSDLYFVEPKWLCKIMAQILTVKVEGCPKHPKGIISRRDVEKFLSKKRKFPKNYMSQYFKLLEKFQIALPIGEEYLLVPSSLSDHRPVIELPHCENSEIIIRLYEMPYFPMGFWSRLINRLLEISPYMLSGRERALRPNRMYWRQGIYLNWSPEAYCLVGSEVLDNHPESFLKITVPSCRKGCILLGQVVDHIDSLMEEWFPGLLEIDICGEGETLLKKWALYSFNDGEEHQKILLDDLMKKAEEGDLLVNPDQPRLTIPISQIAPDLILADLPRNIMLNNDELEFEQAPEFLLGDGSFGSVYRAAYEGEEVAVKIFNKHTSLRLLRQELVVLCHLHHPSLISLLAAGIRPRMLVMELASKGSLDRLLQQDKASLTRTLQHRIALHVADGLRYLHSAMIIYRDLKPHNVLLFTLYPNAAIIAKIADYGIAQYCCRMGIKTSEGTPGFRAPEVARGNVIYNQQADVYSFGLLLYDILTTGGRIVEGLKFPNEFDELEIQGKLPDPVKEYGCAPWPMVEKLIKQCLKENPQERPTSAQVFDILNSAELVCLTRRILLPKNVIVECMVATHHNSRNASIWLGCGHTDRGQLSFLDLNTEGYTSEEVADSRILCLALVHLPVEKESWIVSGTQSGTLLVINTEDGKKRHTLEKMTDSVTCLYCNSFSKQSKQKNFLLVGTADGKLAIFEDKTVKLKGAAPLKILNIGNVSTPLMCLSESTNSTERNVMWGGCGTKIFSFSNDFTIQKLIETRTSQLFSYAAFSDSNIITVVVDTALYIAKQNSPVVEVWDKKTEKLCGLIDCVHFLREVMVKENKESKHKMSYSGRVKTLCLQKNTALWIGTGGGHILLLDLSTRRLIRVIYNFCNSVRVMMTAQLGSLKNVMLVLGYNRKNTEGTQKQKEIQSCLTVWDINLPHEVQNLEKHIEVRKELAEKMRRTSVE", "UniProt P42680, sequence (whole entry, looked up)": "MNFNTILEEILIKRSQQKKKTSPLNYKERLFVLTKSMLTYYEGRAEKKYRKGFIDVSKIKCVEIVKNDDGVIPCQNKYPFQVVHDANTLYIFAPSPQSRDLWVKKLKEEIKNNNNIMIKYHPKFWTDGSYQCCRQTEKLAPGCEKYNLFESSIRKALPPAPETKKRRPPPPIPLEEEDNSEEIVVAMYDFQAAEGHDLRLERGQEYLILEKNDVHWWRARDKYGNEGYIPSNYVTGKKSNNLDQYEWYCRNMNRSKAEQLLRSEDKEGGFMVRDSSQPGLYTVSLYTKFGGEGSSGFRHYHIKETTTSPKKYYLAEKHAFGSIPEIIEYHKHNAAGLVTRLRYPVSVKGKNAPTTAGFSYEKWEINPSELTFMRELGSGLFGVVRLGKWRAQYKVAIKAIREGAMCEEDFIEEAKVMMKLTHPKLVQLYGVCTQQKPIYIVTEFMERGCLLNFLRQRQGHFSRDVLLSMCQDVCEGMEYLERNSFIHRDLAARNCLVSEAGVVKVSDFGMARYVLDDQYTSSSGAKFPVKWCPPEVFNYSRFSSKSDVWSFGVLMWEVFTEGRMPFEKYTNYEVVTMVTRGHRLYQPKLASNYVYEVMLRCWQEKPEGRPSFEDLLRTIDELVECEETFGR", "UniProt P25103, sequence (whole entry, looked up)": "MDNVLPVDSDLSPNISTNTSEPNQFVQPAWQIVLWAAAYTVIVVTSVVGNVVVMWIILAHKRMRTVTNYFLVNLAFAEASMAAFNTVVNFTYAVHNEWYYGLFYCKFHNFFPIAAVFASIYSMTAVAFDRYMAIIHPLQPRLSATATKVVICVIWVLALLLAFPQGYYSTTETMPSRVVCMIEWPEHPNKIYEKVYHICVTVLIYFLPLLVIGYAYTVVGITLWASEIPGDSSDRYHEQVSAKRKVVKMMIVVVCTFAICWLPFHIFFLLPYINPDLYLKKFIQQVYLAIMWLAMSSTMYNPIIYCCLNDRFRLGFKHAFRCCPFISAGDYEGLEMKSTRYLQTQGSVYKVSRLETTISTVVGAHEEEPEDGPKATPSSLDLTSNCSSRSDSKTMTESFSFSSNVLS", "UniProt Q15569, sequence (whole entry, looked up)": "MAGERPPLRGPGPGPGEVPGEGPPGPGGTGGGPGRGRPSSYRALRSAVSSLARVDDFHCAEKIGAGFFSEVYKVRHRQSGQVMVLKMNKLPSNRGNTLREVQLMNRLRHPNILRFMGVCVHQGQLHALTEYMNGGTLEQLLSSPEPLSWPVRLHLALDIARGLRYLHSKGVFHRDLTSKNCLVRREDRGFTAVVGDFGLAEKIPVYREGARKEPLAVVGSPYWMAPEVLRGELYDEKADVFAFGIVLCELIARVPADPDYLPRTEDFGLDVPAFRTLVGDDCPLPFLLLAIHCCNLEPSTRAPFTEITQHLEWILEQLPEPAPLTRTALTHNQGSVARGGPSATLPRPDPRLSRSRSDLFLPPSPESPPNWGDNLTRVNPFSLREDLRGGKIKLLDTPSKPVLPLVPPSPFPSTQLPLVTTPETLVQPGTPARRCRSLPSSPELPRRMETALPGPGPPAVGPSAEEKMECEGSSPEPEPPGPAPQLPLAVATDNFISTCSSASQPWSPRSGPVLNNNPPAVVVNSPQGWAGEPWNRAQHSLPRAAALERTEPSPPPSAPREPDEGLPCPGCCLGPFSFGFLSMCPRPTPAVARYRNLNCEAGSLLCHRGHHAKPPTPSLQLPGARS", "UniProt P61075, sequence (whole entry, looked up)": "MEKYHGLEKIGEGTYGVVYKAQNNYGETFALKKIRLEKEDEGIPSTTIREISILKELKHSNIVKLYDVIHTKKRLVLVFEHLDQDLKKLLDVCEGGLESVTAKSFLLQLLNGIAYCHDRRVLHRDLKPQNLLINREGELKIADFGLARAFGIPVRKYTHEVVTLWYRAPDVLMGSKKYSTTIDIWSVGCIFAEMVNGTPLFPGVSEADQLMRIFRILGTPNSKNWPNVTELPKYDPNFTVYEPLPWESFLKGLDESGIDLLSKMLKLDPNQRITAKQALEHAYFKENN"}
{"Structure (SMILES)": "c1cnn2ncc(-c3ccnc(N4CCC45COC5)n3)c2c1", "target": "CRK2 (Plasmodium falciparum, UniProt P61075)", "assay": "cell-free assay", "setting": "1 µM", "endpoint": "remaining signal", "value": "72%"}
{"Structure (SMILES)": "CCCCC(=O)Nc1ccc(-c2ccc3ncn(CCC)c(=O)c3c2)cn1", "target": "TEC (Homo sapiens, UniProt P42680)", "assay": "binding, competition with immobilised ligand", "setting": "0.5 µM", "endpoint": "remaining binding", "value": "100%"}
{"Structure (SMILES)": "Nc1ncnc2occ(-c3ccc(NC(=O)Nc4cc(C(F)(F)F)ccc4F)cc3)c12", "target": "KIT (Homo sapiens, UniProt P10721)", "assay": "cell-free assay, inhibitor", "setting": "20 µM", "endpoint": "remaining signal", "value": "0%"}
{"Structure (SMILES)": "COc1ccc(/C=C/C(=O)c2c(O)cc(OC)cc2OC)cc1", "target": "CTSL", "assay": "enzyme activity, inhibitor", "setting": "100 µM", "endpoint": "remaining activity", "value": "147%"}
{"Structure (SMILES)": "C=CC(=O)N1CCC(COCC(=O)N2CCN(c3nc(-c4cnc(N)nc4C(F)F)nc(N4CCOC[C@@H]4C)n3)CC2)CC1", "target": "DYRK2 (Homo sapiens, UniProt Q92630)", "assay": "binding, competition with immobilised ligand", "setting": "1 µM", "endpoint": "remaining binding", "value": "99%"}
{"Structure (SMILES)": "COc1cc(C(F)(F)F)c(Cl)cc1NS(=O)(=O)c1c(C)[nH]c(C)c1C(=O)N1CCC(F)(F)C1", "target": "DRD3 (Homo sapiens, UniProt P35462)", "assay": "β-arrestin recruitment, agonist", "setting": "90 min", "endpoint": "Emax", "value": "99%"}
{"Structure (SMILES)": "CNc1ncc2c(/C=C/C(=O)N3CCC(OC)CC3)nn(Cc3cccc(C(F)(F)F)c3)c2n1", "target": "LIM domain kinase 1 (LIMK1, Homo sapiens, UniProt P53667)", "assay": "enzyme activity, inhibitor, radiometric", "setting": "1 µM", "endpoint": "remaining activity", "value": "93%"}
{"Structure (SMILES)": "COCc1cc(OC)c(-c2cc(C(C)=O)n3ccccc23)cc1OC", "target": "BRD9 (Homo sapiens, UniProt Q9H8M2)", "assay": "thermal stability, DSF", "setting": "200 µM", "endpoint": "ΔTm", "value": "9.4 °C"}
{"Structure (SMILES)": "FC(F)(F)Oc1cccc(-c2cnc3ccc(-c4ccncc4)nn23)c1", "target": "TESK1 (Homo sapiens, UniProt Q15569)", "assay": "enzyme activity, inhibitor, radiometric", "setting": "5 µM", "endpoint": "activity vs control", "value": "10%"}
{"Structure (SMILES)": "CC(=O)/C=C/c1c[nH]c2ccccc12", "target": "CTSL", "assay": "enzyme activity, inhibitor", "setting": "100 µM", "endpoint": "remaining activity", "value": "71.5%"}
{"Structure (SMILES)": "C1=C/COCc2cc(ccc2OCCN2CCCC2)Nc2nccc(n2)-c2cccc(c2)COC/1", "target": "PRKCH (Homo sapiens, UniProt P24723)", "assay": "binding", "setting": "0.1 µM", "endpoint": "remaining binding", "value": "100%"}
{"Structure (SMILES)": "OC[C@H]1O[C@@H](Oc2ccc(O)cc2)[C@H](O)[C@@H](O)[C@@H]1O", "target": "USP51 (Homo sapiens, UniProt Q70EK9)", "assay": "enzyme activity, inhibitor", "setting": "5 µM", "endpoint": "inhibition", "value": "30%"}
{"Structure (SMILES)": "NC/C(=C\\F)COc1cccc(Cn2c(=S)[nH]c(=O)c3[nH]cnc32)c1", "target": "TACR1 (Homo sapiens, UniProt P25103)", "assay": "ligand displacement, radioligand", "setting": "10 µM", "endpoint": "inhibition", "value": "< 50%"}
{"Structure (SMILES)": "NC[C@H]1O[C@H](O[C@H]2[C@H](O)[C@@H](O[C@H]3O[C@H](CO)[C@@H](O)[C@H](N)[C@H]3O)[C@H](N)C[C@@H]2N)[C@H](N)C[C@@H]1O", "target": "CTSL", "assay": "enzyme activity, inhibitor", "setting": "100 µM", "endpoint": "remaining activity", "value": "89.4%"}
{"Structure (SMILES)": "Cc1cc([C@@H](C)Nc2ccccc2C(=O)O)c2nc(N3CCC(F)(F)CC3)c(C#N)c(=O)n2c1", "target": "ULK2 (Homo sapiens, UniProt Q8IYT8)", "assay": "binding, competition with immobilised ligand", "setting": "1 µM", "endpoint": "remaining binding", "value": "56%"}
{"Structure (SMILES)": "CCC(C)n1ncn(-c2ccc(N3CCN(c4ccc(OCC5COC(Cn6cncn6)(c6ccc(Cl)cc6Cl)O5)cc4)CC3)cc2)c1=O (centres unmarked)", "target": "CTSL", "assay": "enzyme activity, inhibitor", "setting": "100 µM", "endpoint": "remaining activity", "value": "66.4%"}
{"Structure (SMILES)": "COc1cc(-c2cncc3c2CN(C)Cc2cc(N4CCNCC4)ccc2-3)cc(OC)c1OC", "target": "LRRK2 (Homo sapiens, UniProt Q5S007)", "assay": "enzyme activity, inhibitor", "setting": "1 µM", "endpoint": "remaining activity", "value": "103%"}
{"note": "For quick reference, copied from above:"}
{"Structure (SMILES)": "FC(F)(F)Oc1cccc(-c2cnc3ccc(-c4ccncc4)nn23)c1", "target": "TESK1 (Homo sapiens, UniProt Q15569)", "assay": "enzyme activity, inhibitor, radiometric", "setting": "5 µM", "endpoint": "activity vs control", "value": "10%"}
